# Assay results pooled from the literature.
# Each numbered part is a random draw from the data of one study; scales do not carry over between parts. Positions count from the first letter of the parent shown.

# Series 1
# Target: ABI1, truncated, D143A, DHFR fusion (Arabidopsis thaliana)
# Method: DHFR PCA, deep sequencing
# Sample: yeast
# Notes: methotrexate growth selection, single substitutions
# Together with: (+)-ABA 58 µM
# Reference: wild-type fitted maximum
# Direction: higher = stronger binding
# Starting sequence: PYL1, truncated, DHFR fusion (Arabidopsis thaliana); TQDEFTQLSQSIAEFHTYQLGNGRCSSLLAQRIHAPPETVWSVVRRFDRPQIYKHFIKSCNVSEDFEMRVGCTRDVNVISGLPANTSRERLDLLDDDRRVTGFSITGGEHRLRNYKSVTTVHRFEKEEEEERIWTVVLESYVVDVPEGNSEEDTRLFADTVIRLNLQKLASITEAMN; partner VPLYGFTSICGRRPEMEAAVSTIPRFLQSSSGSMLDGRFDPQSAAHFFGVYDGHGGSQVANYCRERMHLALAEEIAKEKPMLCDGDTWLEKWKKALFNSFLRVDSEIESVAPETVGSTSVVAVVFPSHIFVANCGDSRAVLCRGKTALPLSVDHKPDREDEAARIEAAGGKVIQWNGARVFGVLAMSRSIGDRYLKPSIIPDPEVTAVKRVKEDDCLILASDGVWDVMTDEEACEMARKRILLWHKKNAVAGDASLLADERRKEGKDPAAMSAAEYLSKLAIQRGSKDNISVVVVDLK
Change,relative binding score [%]
S63P,91.6
S11K,81.5
D159G,57.6
T86E,61.9
Q2W,74.8
P36S,86.6
T135G,1.67
L91M,67.5
V118C,89.1
H55R,89.4
E130Q,93.6
P36F,54.7

# Series 2
# Target: CCNB2, cyclin fold, Cln2 fusion (human)
# Method: yeast growth competition, sequencing
# Sample: yeast
# Notes: weak parent motif
# Reference: not given
# Direction: higher = stronger binding
# Starting sequence: SCAPER docking peptide (human); SNARRSLNFGGST
Change,normalised enrichment score
T13K,0.337
G11Q,0.0614
N8T,0.245
G10T,0.153
G10S,-0.187
T13P,0.0421
S12E,0.83
R5Y,-0.0695
S12W,0.292
G11M,0.221
A3W,0.134
R4Y,-0.219
G10A,0.29
T13A,-0.0123
L7E,0.134
S12R,-0.15
L7Q,0.723
G11A,0.0442

# Series 3
# Target: Interferon regulatory factor 7, full length, phosphomimetic (IRF7, Homo sapiens, UniProt Q92985, residues 1-503, S101K/S471D/S472D/S475D/S476D/S477D/S483D/S484D/S487D)
# Method: protein-binding microarray
# Molecule type: double-stranded DNA, one strand shown
# Sample: in vitro
# Tested at: 250 nM
# Notes: 60-bp whole probe
# Together with: salmon DNA 0.4 mg/ml
# Reference: random background probes
# Direction: higher = stronger binding
# Shared flanks, not repeated: GCCTAGCAC … GTCTTGATTCGCTTGACGCTGCTG
# Residues (chain): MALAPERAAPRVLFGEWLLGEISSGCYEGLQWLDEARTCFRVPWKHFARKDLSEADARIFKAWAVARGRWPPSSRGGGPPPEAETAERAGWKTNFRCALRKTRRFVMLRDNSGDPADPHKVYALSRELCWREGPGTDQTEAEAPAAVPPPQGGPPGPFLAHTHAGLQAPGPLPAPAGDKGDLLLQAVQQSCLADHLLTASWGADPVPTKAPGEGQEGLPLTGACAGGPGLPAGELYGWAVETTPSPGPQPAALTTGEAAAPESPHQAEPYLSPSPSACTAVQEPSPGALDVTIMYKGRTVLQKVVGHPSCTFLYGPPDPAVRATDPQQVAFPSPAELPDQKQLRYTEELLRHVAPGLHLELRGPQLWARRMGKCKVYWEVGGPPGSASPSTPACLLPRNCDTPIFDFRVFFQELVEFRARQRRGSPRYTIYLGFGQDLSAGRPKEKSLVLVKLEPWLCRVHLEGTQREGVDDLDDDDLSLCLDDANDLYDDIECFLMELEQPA
Oligonucleotide,log fluorescence
TTAGGACTGCTACCGCTTTAGTGCTAG,-0.265 z-score
GACGGTTCCCTTCTCCTGACGTGCTAG,0.967 z-score
GACGGGATCGACTATCGGGACGTGCTA,-0.44 z-score
GACGGTCTCGGACGGGGGACGTGCTAG,0.725 z-score
TTCACTTTCTTTAACATATTGTGCTAG,1.12 z-score
TCATTTATTTTTTTTATACTGTGCTAG,1.56 z-score
GACGGTCTCCTTCTCCTGGCGTGCTAG,0.307 z-score
TGCTTCCTAATTCTCTTTTCGTGCTAG,2.66 z-score
TTAGGTTCCCTTTTCCGTTAGTGCTAG,4.09 z-score
GGGCATTTGGAAAATGAAAATGTGCTA,-0.0378 z-score
TTAGGTCTCCTTTTCATTTAGTGCTAG,1.73 z-score
GACGGACTGCTTATCCTGATGTGCTAG,-0.392 z-score
AGGTGGGAGGGGACAGTGGTGTGCTAG,0.405 z-score
GACGGTCTCCTTCTCCTGTCGTGCTAG,0.414 z-score
TTAGGACTGGGTAACGGTTAGTGCTAG,0.0804 z-score
GACGTTTTCCTTATCCTGACGTGCTAG,1.87 z-score
GACGATTTCAGGTTCGAGACGTGCTAG,0.899 z-score
TCAGTTTCCTCTTTCACACTGTGCTAG,4.55 z-score
GACGGTATGGACTATCGGGACGTGCTA,-0.676 z-score

# Series 4
# Target: CREB3L1, bZIP domain (human)
# Method: DHFR protein complementation
# Sample: yeast
# Notes: single substitutions, most at no-binding floor
# Reference: wild-type JUN-FOS pair
# Direction: higher = stronger binding
# Starting sequence: JUN, bZIP domain (human); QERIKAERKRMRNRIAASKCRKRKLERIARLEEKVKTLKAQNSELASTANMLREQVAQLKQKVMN; partner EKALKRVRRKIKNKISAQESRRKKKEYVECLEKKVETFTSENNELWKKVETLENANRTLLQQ
Change,binding fitness
I28G,-1.43 natural log
A49G,-1.41 natural log
Q55E,-1.46 natural log
E44G,-1.49 natural log
L38N,-1.48 natural log
A46G,-1.39 natural log
K34Y,-1.56 natural log
E44N,-1.36 natural log
E32S,-1.47 natural log
I28T,-1.48 natural log
E32D,-1.52 natural log
K36G,-1.36 natural log

# Series 5
# Target: RING finger protein unkempt homolog, zinc fingers 1-6, GST-SBP tag (UNK, Homo sapiens, UniProt Q9C0B0, residues 30-357)
# Method: RNA Bind-n-Seq
# Molecule type: RNA
# Sample: in vitro
# Tested at: not given
# Notes: RNA with constant flanks, human-mouse chimeric sites, ends assumed
# Reference: input RNA pool
# Direction: higher = stronger binding
# Construct (chain): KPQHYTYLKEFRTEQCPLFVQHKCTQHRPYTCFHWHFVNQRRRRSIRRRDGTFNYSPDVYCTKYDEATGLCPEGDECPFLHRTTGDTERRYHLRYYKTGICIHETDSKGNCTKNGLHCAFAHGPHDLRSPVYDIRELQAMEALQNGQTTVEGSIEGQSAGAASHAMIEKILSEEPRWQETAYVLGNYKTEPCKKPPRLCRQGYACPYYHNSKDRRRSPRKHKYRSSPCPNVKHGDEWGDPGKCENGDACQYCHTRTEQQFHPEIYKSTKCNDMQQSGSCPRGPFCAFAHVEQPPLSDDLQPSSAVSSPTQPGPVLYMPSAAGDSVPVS
Oligonucleotide,bound/input enrichment [ratio]
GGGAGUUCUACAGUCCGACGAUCUUUGUAUUUAUGCUAAGCACACGUGCUGGUGGUCUGGGCAUCAAUCUUGCGACUGCUGAUGUAGUCAUUUUGUAUGACUCAGAUUGGAAUCCGCAAGUUGAUCUUCAGGCUAUGGACCGUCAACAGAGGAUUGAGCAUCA,0.0954
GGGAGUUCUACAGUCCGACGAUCGCUCUUGGGAAUGUAAUCAGCGCCUUGGGGGACAAGAGCAAGAGGGCCACCCAUGUCCCUUACAGAGACUCUAAGCUGACAAGACUCUUGCAGGAUUCCCUUGGGGGUAACAGCCAAACCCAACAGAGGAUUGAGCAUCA,0.117
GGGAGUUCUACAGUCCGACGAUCUACUCAACUUUCUUGCCACAUUUUGAAUUCCAAGACAUUAUCCCUCCAGAUGACUUCCUAACGAGUGAUGAAGAGCAAGAUUUGGUUUUAUUUGGAAGUUUGAGAGGACAAGUUGUUGGACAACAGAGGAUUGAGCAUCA,0.222
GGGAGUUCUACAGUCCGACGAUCUGUAGUUUCGCGGUUCAGGCUUUGUGUGUAGUUCACUUACGGUAUUAAAUUAUUAUUGCCCUUAGUUUAUAAUAAGGAUAAUUGCAUUUAAAGAGGUUACUGAAUGUUACUCUGAAACUUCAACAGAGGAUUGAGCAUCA,0.585
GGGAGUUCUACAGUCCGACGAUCAAAGUGGACUAUGGCGAGUACAUGGAUAAAAACAAUGUGAGGCGGCAAGCAACAACAAUCAUAGCUGAUAAUAUUAUAUUUCUGAGUGACCAGACAAAAGAAAAGGCAUAGAACGGAUGACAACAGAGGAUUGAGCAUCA,6.35
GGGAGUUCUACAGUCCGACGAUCGGCCUGGGACCGUCCUGGCUAGUGCAAAAUAGCGGCAGUGGAGGCUCAGAGGAAAGUUUUGUUAGUGGAGGCAGUGGUAGAGGCCGUCAUGUACGGUCCUUUACUCGAUAGAUGUGUUCUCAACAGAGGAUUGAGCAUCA,0.954
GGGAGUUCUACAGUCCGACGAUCCCCCAAUACCAUUUGCAGGUCUGGAACCUGCAUUCUUUUUUUAAAAAACAUGUAUACAUUUUAGGGCUGUAGAUUUAUUUUCCUGGUUUUGUUUUUCUUGCUUAUUCUUUGAGCACAGAACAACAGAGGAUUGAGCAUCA,1.57
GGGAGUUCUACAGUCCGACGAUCGCGAACAGGACUACAGAAAUGCUGGUAAUUUCAGUCAGUGAGUCGUGACUUCUGAUGUCCCAGCAAAUGUUGGCAUUGUUGACUGCUGAGAAGAUACUUCUGAGGACCCACGUCUAAGGUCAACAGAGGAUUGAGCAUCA,0.116
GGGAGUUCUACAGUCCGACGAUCGUGCCCUUCUCGCUGCUGCGGAGCCCGCCCAGCUGGGCAUUCCGGGACUGGUACCCUGCACACAGCCGCCUCUUCGACCAGGCCUUCGGGGUGCCCCGGUUGCCCGAUGAGUGGUCGCAGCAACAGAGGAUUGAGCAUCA,0.066
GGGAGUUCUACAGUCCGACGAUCCCCACGCCUCCUCUCCCACAGGCCCAAGAUAUAACCCACCAGUGCCUUUUGUCUUCCUGUCAGCUCUGUCAAUCACGCCUGUCCUCUGUCCCUCUCACCAAGUGCCCAAAGUGGGGAGGGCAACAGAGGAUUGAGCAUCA,1.91
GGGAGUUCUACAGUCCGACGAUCUUACCCGAGAACGAGGAUGAGCUGGAGAGCACCAACAGGCGCUACACCAAGAGGGACUGUAGCACUUUCCUCAGAACUAGUGAGACGGGCAUUGUGGACCAGGUCAUGGUCACUCUCAACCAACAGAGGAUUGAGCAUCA,0.28

# Single results of other studies
Molecule,target,assay,test system,conditions,how to read,endpoint,value
"PhoQ, residues 284 288 289 292 302 303 ASASEQ","PhoP, residues 12 14 15 18 19 GMGLL (Escherichia coli, UniProt P23836)","Sort-seq, measured: YFP reporter",E. coli,"PhoQ-PhoP variant library, together with: 10 µM Mg2+","reference: high Mg2+ state, higher = stronger signaling",fold induction,2.05

# Excerpt of the above (series 4):
Change,binding fitness
A46G,-1.39 natural log
K34Y,-1.56 natural log
E44N,-1.36 natural log
E32S,-1.47 natural log
I28T,-1.48 natural log
E32D,-1.52 natural log
K36G,-1.36 natural log
